Results pooled from the literature.
Numbered parts are unrelated; each lists some results of a single study. Substitutions count along the parent as printed.

Study 1
Target: Interferon regulatory factor 3, full length, phosphomimetic (IRF3, Homo sapiens, UniProt Q14653, residues 1-427, S386D/S396D/S398D/S402D/T404D/S405D)
Method: protein-binding microarray
Molecule type: double-stranded DNA, one strand shown
Medium: in vitro
Tested at: 2540 nM top
Setting: 60-bp whole probe
With: salmon DNA 0.4 mg/ml
Baseline: random background probes
Reading: higher = stronger binding
Shared flanks, not repeated: GCCTAGCAC … GTCTTGATTCGCTTGACGCTGCTG
Residues (chain): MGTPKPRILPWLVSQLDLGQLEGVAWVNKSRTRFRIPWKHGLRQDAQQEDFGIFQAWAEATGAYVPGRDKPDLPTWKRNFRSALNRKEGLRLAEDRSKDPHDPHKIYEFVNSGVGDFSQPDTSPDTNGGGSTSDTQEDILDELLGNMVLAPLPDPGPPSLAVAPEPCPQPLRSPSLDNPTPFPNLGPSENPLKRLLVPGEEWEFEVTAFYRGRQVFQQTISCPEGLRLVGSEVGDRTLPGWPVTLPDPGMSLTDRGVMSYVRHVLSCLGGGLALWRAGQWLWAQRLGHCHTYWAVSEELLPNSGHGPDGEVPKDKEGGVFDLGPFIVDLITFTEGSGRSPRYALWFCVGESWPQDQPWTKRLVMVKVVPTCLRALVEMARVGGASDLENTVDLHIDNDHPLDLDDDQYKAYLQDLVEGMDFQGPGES
| Sequence | fitted relative affinity |
| --- | --- |
| TCATATATACTATATGCAACTGTGCTA | 0.576 z-score |
| GTAGATGCCTTTCTCTTGGAGTGCTAG | 4.51 z-score |
| GGGCTTTCCCAGCCTGGGGCTGTGCTA | 0.307 z-score |
| TAAGGACTGCTTCTCCTTTAGTGCTAG | 0.0463 z-score |
| GACGATATCGGGTATCGGGACGTGCTA | 0.539 z-score |
| TTATATTTCAGTTCCGATTAGTGCTAG | 3.27 z-score |
| TTAGTACTGGGGTATCGGTTAGTGCTA | 0.242 z-score |
| GACGGTTCCCTTATCCTGACGTGCTAG | 3.51 z-score |
| TTAGGTCTCCTTAGCCTTTAGTGCTAG | 0.48 z-score |
| TCAGATATTAAACTGATACTGTGCTAG | 0.416 z-score |
| TTAGGTATCGACACTGCGTTAGTGCTA | 0.169 z-score |
| GCCGATTTCGGGTTTCGAGACGTGCTA | 3.58 z-score |

Study 2
Target: RNA binding protein fox-1 homolog 2, RRM domain, GST-SBP tag (RBFOX2, Homo sapiens, UniProt O43251-10, residues 100-194)
Method: RNA Bind-n-Seq
Molecule type: RNA
Medium: in vitro
Tested at: 365 nM
Setting: natural RNA segment, single round, ends assumed
Baseline: no-protein control
Reading: higher = stronger binding
Shared flanks, not repeated: GGGAGUUCUACAGUCCGACGAUC … UGGAAUUCUCGGGUGCCAA
Residues (chain): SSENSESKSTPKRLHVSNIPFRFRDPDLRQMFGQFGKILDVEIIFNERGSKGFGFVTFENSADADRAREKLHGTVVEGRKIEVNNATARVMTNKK
| Sequence | RBNS enrichment (R) |
| --- | --- |
| CUUAACUUCAGCUGGUGCGAAACAUCUGACUGUUGUCAGACUCCAGCCAUCUGCUCCUGCAGCGUGCAGCUUUGGAUUGUUUGUGCAGAAAACAGCAAGCGAUGGCUGAU | 0.391 |
| AAGGAAUGAACAGUAGAAUUUUAAUAGGCUGUCCAAAGAAGCCAGGUCUGCUGUGGGCAAGUAUAGCCUAACCCUAGUCUUGUAAAAUAAGCCAGAAAGGGUUACUGAGC | 0.461 |
| AUGCACGUGCUUUGCCCUGGGUACAGCCAGAGCCCUUCAACCCCACCUUGGACUUGAGGACCUACCUGAUGGGACGUUUCCACGUGUCUCUAGAGAAGGAUUCCUGGAUC | 1.33 |
| CAGUCUGGGCCUCAGACUCAGACUGCUGUAUCUAGCCUACGUUGUCACAAUUUCCUUCUCUGUUAACUCUGUGACUGUUCUUCCUUUUGCUACUCUCGACGUAACAUAUA | 0.316 |
| UCAUGUAUCAUCUAGCCAUGCACGAGCCUGGCAGGCAGGUGGGCGGUCUGCCUCCAGGGAUCCUGGGACCCUGAUGGCGAUCGUCCUGUCAUGCUGGGCCCUUCAUUUGA | 0.458 |
| GGGUACAGGGUUCCCAGCCUCAGGUUCCUGGAGGCCAAUGUCCAGCAAGAUCAUGCCUUCUCUGUCUGGAAGAGGCAACAGUUUGGAGAUCCUGUCAUCAUGGGACGUCA | 0.439 |
| UAGUUACAACCUAUUCUUUUGCAUACAUAGCCUUUCCUUCCCUGCAAAAAGUUAAGCCUGCUAAGUAUUCAGAUCCCUGUCAUUUACUUCUCAGCAGUCUCAUUCAAGCU | 0.549 |
| GCUUAGAAAAGGCGUAAGGGAACUCAUAAAGGCUAGCAGCAUGCGGUAUUUUAACUUUCUGCCUCGGCCUCUGUGGAUGCAGAAAUCUGCCCUACAAAAUGCUCUUCAUU | 1.04 |

Study 3
Target: CCNF, cyclin fold, Cln2 fusion (human)
Method: yeast growth competition, sequencing
Medium: yeast
Setting: strong parent motif
Baseline: not given
Reading: higher = stronger binding
Parent: MICAL3 docking peptide (human); LQLRRQLSFSEDS; partner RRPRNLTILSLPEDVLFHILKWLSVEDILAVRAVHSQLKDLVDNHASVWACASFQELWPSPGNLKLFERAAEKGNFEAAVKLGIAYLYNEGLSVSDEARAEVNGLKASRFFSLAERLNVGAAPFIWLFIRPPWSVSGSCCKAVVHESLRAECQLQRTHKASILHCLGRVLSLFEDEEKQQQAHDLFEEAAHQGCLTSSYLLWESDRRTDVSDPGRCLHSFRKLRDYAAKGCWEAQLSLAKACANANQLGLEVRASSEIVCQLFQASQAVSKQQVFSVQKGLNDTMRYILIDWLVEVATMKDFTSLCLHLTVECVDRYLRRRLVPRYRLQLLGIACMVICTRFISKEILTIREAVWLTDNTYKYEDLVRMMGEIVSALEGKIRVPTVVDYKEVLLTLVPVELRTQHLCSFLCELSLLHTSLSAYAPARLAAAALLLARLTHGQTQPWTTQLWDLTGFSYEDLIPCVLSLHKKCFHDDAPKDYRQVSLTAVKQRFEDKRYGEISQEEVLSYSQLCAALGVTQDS
| Variant | normalised enrichment score |
| --- | --- |
| F9W | 1.27 |
| L7W | 0.354 |
| R5L | 0.479 |
| S8Q | 8.08 |
| L7M | 0.615 |
| Q2L | 5.5 |

Single results of other studies
| Molecule | target | assay | test system | setting | how to read | quantity | result |
| --- | --- | --- | --- | --- | --- | --- | --- |
| PhoQ, residues 284 288 289 292 302 303 SSLVEF | PhoP, residues 12 14 15 18 19 LHATL (Escherichia coli, UniProt P23836) | Sort-seq, refers to: YFP reporter | E. coli | PhoQ-PhoP variant library, with: 10 µM Mg2+ | baseline: high Mg2+ state, higher = stronger signaling | fold induction | 5.2 |

A few entries again (study 2):
| Sequence | RBNS enrichment (R) |
| --- | --- |
| UCAUGUAUCAUCUAGCCAUGCACGAGCCUGGCAGGCAGGUGGGCGGUCUGCCUCCAGGGAUCCUGGGACCCUGAUGGCGAUCGUCCUGUCAUGCUGGGCCCUUCAUUUGA | 0.458 |
| GGGUACAGGGUUCCCAGCCUCAGGUUCCUGGAGGCCAAUGUCCAGCAAGAUCAUGCCUUCUCUGUCUGGAAGAGGCAACAGUUUGGAGAUCCUGUCAUCAUGGGACGUCA | 0.439 |
| UAGUUACAACCUAUUCUUUUGCAUACAUAGCCUUUCCUUCCCUGCAAAAAGUUAAGCCUGCUAAGUAUUCAGAUCCCUGUCAUUUACUUCUCAGCAGUCUCAUUCAAGCU | 0.549 |
